# Measured values collected from several papers.
# Numbers after ± are the reported error.
# USP51 ZnF-UBD domain: Ubiquitin carboxyl-terminal hydrolase 51, ZnF-UBD domain (USP51, Homo sapiens, UniProt Q70EK9)
# Chain of UniProt Q70EK9 (whole entry, looked up): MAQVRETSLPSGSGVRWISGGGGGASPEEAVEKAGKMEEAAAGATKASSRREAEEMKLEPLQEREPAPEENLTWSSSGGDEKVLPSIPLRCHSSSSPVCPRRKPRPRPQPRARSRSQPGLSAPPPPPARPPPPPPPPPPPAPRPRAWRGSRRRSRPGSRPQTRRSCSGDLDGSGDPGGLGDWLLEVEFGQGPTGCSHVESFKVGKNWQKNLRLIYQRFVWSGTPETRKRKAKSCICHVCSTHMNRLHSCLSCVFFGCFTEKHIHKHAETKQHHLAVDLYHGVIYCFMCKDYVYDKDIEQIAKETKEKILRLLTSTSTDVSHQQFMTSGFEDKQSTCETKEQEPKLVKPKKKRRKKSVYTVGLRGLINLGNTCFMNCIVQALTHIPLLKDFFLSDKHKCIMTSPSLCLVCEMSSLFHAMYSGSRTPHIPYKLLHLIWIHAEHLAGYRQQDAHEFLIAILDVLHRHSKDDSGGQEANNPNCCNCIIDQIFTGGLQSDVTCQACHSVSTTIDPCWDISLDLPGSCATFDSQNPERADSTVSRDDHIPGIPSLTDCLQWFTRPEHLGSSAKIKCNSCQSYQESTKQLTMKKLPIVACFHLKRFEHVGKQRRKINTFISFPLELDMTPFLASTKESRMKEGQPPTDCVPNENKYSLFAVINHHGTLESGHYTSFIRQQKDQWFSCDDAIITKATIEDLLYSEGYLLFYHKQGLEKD
# GAP50: Glideosome-associated protein 50 (GAP50, Plasmodium falciparum, UniProt Q8I2X3)
# Chain of UniProt Q8I2X3 (whole entry, looked up): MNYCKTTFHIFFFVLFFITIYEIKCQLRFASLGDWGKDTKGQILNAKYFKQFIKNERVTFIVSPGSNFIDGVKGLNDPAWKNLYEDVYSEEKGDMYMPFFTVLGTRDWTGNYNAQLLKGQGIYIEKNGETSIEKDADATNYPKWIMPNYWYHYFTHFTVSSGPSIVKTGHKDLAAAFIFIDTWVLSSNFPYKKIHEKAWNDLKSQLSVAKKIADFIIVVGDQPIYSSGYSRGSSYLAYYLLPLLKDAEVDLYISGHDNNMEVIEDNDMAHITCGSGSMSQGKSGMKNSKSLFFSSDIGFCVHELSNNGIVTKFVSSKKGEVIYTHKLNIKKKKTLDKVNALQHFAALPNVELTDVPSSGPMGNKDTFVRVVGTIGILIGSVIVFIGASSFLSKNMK
# Kir3.1/Kir3.2: Kir3.1/Kir3.2 (Homo sapiens, UniProt P48051+P48549)
# Chain of UniProt P48051 (whole entry, looked up): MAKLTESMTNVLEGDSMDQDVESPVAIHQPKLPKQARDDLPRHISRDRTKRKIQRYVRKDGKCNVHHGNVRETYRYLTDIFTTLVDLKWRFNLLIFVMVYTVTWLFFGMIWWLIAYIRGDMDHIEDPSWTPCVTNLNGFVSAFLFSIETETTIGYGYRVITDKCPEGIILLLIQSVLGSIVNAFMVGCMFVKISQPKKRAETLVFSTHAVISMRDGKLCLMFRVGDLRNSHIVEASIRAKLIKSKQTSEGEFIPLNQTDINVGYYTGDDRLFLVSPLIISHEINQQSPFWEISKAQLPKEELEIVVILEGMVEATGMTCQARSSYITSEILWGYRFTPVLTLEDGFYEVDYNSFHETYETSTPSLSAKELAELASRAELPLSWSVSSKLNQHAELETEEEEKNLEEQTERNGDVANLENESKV
# Chain of UniProt P48549 (whole entry, looked up): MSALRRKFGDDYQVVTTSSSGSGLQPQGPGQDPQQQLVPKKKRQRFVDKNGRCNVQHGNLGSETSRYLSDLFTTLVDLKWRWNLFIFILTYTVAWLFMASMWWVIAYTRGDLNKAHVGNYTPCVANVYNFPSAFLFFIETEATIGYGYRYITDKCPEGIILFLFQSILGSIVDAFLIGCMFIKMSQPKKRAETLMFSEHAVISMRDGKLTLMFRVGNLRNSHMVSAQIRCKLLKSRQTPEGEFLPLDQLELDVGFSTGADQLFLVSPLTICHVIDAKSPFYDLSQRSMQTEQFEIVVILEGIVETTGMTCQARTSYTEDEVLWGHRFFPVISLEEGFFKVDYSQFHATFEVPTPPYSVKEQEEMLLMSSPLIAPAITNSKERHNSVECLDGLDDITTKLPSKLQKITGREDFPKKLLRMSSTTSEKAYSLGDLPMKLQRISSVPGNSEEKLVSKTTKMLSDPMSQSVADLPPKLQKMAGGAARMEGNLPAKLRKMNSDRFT
# CDK9: Cyclin-dependent kinase 9 (CDK9, Homo sapiens, UniProt P50750)
# Chain of UniProt P50750 (whole entry, looked up): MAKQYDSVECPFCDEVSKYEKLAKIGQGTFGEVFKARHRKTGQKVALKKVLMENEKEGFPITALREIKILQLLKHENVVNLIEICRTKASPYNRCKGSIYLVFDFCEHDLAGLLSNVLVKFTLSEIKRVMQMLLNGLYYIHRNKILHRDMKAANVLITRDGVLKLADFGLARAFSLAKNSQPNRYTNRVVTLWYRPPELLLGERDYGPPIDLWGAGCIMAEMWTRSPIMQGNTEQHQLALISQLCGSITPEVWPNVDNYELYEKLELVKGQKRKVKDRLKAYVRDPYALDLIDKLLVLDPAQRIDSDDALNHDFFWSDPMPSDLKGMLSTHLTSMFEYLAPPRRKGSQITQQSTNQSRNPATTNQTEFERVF
# Chain of UniProt P10636 (whole entry, looked up): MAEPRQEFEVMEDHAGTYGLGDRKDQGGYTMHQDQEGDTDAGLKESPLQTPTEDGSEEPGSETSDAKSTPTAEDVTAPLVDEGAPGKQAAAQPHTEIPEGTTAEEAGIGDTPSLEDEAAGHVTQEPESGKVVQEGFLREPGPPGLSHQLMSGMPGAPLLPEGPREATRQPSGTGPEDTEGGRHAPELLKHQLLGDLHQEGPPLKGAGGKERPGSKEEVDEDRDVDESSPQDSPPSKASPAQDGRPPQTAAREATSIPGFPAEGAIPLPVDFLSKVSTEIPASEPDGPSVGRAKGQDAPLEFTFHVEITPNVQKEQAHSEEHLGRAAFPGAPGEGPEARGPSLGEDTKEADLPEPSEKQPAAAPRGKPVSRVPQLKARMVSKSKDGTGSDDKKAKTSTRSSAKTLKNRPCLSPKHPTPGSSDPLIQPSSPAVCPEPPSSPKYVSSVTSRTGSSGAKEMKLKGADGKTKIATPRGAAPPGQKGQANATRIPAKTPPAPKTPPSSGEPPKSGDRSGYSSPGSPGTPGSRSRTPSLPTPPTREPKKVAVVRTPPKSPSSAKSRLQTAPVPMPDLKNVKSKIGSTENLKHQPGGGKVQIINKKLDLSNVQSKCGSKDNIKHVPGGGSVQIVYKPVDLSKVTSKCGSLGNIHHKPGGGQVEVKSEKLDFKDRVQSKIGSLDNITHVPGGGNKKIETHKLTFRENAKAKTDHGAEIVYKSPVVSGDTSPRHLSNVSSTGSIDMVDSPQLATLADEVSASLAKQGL
# Chain of UniProt Q969S8 (whole entry, looked up): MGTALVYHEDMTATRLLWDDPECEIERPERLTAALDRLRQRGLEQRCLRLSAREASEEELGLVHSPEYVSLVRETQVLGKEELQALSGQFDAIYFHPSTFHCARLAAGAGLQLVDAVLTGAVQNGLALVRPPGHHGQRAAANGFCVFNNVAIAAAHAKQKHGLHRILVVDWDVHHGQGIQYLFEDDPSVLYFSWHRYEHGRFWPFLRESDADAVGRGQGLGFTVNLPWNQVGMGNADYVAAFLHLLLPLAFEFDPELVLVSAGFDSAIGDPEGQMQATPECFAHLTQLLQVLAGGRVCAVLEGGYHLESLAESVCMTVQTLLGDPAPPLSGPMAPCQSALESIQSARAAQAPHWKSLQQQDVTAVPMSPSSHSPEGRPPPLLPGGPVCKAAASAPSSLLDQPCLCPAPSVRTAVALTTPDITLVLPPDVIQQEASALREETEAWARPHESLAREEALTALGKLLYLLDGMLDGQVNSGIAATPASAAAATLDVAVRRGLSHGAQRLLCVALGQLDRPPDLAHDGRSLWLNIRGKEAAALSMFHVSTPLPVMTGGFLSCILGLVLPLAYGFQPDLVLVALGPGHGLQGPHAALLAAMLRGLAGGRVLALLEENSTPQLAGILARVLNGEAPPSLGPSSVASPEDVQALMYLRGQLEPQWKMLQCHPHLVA
# Chain of UniProt P51813 (whole entry, looked up): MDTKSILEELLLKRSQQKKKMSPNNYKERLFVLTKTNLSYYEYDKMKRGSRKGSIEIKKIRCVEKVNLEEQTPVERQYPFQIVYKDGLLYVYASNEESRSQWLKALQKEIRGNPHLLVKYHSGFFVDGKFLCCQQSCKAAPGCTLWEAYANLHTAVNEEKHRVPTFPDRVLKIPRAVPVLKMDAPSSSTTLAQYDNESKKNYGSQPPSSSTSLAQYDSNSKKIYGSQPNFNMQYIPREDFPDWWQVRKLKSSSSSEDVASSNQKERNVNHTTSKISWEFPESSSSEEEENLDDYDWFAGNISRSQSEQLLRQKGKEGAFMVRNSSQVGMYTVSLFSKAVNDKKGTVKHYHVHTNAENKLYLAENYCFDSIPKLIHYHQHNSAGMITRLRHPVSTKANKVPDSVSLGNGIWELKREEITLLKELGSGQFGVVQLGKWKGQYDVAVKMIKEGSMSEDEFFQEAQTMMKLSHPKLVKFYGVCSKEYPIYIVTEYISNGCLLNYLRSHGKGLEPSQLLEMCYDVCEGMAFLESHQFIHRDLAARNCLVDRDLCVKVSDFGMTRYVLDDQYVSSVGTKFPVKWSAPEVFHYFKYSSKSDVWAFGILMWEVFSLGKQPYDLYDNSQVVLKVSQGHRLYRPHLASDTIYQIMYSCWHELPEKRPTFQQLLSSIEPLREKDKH
SMILES,target,assay,test system,conditions,quantity,value
CCCCOC(=O)CCC(C)=O,"uncharacterized protein (Bradysia odoriphaga, UniProt A0A2S0X9G4)","binding, competitive fluorescence displacement",,,Ki,> 50 µM
CSc1nc(C)c(CCC(=O)O)c(=O)[nH]1,USP51 ZnF-UBD domain,,,,Kd,> 1000 µM
O=C(c1ccccc1)N1CCN(c2ccccc2NC(=O)C(Cl)(Cl)Cl)CC1,GAP50,"binding, surface plasmon resonance",,1:1 binding model,Kd,19.4 µM
O=C(O)Cn1ccc2ccccc2c1=O,USP51 ZnF-UBD domain,,,,Kd,> 1000 µM
O=C(COc1ccc(C(F)(F)F)cc1C(F)(F)F)Nc1cc(C2CCC2)nn1C1CCOCC1,Kir3.1/Kir3.2,"activator, thallium flux",HEK293,,EC50,9.2 µM
CC(C)(C)c1cnc(CSc2cnc(NC(=O)C3CCN(C(=O)CCCCCCCCCCN4Cc5cc6c(cc5C4)C(=O)N(C4CCC(=O)NC4=O)C6=O)CC3)s2)o1 (centres unmarked),CDK9,"degrader, Western blot",TC-71,,DC50,0.0147 ± 0.0033 µM
CNc1nnc(Sc2cnn(-c3ccccc3)c(=O)c2Cl)s1,GAP50,"binding, surface plasmon resonance",,1:1 binding model,Kd,84.4 µM
N#Cc1ccsc1NC(=O)COc1ccc(Cl)cc1Cl,Kir3.1/Kir3.2,"activator, thallium flux",HEK293,,EC50,> 10 µM
O=C(O)CCC(=O)Nc1ccccc1,USP51 ZnF-UBD domain,,,,Kd,> 1000 µM
CC(C)(C)c1cnc(CSc2cnc(NC(=O)C3CCN(C(=O)CCCCCCN4Cc5cc6c(cc5C4)C(=O)N(C4CCC(=O)NC4=O)C6=O)CC3)s2)o1 (centres unmarked),CDK9,"degrader, Western blot",TC-71,,DC50,0.002 ± 0.0007 µM
O=C(Nc1nnc(-c2ccc(Cl)s2)o1)c1ccc(Cl)s1,GAP50,"binding, surface plasmon resonance",,1:1 binding model,Kd,63.2 µM
CCOC(C)=O,"uncharacterized protein (Drosophila suzukii, UniProt A0AB39ZCT4)","binding, bis-ANS competition fluorescence",,"pH 7.4, together with: bis-ANS",IC50,> 50 µM
CN1CCN(c2ccc(Nc3ncc4cc(C#N)c(=O)n(C5CCCC5)c4n3)cc2)CC1,"BMX (Homo sapiens, UniProt P51813)",,,,IC50,0.257 µM
O=C(Nc1ccccc1-c1nc2c(C(=O)O)cccc2o1)c1ccccc1,GAP50,"binding, surface plasmon resonance",,1:1 binding model,Kd,7.75 µM
O=C(COc1cccc(Cl)c1Cl)Nc1cc(C2CCC2)nn1C1CCOCC1,Kir3.1/Kir3.2,activator,,,EC50,1.2 µM
O=C(COc1ccc(C2CCC(=O)NC2=O)cc1)NCCCCCCN1CCc2c(c3ccccc3n2Cc2ccc(C(=O)NO)cc2)C1 (centres unmarked),"HDAC10 (Homo sapiens, UniProt Q969S8)","degrader, western blot",MM1.S cells,24 h,DC50,0.0017 ± 0.0009 µM
O=C(O)CNc1ncnc2ccccc12,USP51 ZnF-UBD domain,,,,Kd,> 1000 µM
CC(C)(C)c1cnc(CSc2cnc(NC(=O)C3CCN(CC(=O)NCCOCCOCCOCCNc4cccc5c4C(=O)N(C4CCC(=O)NC4=O)C5=O)CC3)s2)o1 (centres unmarked),CDK9,"degrader, Western blot",TC-71,,DC50,0.0474 ± 0.0216 µM
COc1ccc(/C=C/c2ccc(/C=C/c3ccc(OC)c(C(=O)O)c3)c(I)c2)cc1C(=O)O,"Microtubule-associated protein tau, paired helical filaments (MAPT, Homo sapiens, UniProt P10636)",binding,authentic PHF 1 µM,together with: thioflavin S,AC50,> 10 µM
C=CC(C)=CCC=C(C)C,"uncharacterized protein (Bradysia odoriphaga, UniProt A0A2S0X9G4)","binding, competitive fluorescence displacement",,,Ki,> 50 µM
